Assay results collected from several papers.
Each line is one published result; not all experiments were run side by side. Numbers after ± are the reported error.
Sequence of UniProt P22789 (whole entry, looked up): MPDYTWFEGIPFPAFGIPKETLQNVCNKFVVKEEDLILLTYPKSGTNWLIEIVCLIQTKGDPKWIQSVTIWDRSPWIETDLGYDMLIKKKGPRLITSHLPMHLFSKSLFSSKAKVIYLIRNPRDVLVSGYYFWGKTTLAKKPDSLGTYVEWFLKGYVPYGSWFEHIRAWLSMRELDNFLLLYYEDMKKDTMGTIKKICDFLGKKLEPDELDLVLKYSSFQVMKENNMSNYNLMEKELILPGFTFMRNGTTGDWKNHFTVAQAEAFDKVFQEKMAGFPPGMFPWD
Sequence of UniProt Q9BYW2 (whole entry, looked up): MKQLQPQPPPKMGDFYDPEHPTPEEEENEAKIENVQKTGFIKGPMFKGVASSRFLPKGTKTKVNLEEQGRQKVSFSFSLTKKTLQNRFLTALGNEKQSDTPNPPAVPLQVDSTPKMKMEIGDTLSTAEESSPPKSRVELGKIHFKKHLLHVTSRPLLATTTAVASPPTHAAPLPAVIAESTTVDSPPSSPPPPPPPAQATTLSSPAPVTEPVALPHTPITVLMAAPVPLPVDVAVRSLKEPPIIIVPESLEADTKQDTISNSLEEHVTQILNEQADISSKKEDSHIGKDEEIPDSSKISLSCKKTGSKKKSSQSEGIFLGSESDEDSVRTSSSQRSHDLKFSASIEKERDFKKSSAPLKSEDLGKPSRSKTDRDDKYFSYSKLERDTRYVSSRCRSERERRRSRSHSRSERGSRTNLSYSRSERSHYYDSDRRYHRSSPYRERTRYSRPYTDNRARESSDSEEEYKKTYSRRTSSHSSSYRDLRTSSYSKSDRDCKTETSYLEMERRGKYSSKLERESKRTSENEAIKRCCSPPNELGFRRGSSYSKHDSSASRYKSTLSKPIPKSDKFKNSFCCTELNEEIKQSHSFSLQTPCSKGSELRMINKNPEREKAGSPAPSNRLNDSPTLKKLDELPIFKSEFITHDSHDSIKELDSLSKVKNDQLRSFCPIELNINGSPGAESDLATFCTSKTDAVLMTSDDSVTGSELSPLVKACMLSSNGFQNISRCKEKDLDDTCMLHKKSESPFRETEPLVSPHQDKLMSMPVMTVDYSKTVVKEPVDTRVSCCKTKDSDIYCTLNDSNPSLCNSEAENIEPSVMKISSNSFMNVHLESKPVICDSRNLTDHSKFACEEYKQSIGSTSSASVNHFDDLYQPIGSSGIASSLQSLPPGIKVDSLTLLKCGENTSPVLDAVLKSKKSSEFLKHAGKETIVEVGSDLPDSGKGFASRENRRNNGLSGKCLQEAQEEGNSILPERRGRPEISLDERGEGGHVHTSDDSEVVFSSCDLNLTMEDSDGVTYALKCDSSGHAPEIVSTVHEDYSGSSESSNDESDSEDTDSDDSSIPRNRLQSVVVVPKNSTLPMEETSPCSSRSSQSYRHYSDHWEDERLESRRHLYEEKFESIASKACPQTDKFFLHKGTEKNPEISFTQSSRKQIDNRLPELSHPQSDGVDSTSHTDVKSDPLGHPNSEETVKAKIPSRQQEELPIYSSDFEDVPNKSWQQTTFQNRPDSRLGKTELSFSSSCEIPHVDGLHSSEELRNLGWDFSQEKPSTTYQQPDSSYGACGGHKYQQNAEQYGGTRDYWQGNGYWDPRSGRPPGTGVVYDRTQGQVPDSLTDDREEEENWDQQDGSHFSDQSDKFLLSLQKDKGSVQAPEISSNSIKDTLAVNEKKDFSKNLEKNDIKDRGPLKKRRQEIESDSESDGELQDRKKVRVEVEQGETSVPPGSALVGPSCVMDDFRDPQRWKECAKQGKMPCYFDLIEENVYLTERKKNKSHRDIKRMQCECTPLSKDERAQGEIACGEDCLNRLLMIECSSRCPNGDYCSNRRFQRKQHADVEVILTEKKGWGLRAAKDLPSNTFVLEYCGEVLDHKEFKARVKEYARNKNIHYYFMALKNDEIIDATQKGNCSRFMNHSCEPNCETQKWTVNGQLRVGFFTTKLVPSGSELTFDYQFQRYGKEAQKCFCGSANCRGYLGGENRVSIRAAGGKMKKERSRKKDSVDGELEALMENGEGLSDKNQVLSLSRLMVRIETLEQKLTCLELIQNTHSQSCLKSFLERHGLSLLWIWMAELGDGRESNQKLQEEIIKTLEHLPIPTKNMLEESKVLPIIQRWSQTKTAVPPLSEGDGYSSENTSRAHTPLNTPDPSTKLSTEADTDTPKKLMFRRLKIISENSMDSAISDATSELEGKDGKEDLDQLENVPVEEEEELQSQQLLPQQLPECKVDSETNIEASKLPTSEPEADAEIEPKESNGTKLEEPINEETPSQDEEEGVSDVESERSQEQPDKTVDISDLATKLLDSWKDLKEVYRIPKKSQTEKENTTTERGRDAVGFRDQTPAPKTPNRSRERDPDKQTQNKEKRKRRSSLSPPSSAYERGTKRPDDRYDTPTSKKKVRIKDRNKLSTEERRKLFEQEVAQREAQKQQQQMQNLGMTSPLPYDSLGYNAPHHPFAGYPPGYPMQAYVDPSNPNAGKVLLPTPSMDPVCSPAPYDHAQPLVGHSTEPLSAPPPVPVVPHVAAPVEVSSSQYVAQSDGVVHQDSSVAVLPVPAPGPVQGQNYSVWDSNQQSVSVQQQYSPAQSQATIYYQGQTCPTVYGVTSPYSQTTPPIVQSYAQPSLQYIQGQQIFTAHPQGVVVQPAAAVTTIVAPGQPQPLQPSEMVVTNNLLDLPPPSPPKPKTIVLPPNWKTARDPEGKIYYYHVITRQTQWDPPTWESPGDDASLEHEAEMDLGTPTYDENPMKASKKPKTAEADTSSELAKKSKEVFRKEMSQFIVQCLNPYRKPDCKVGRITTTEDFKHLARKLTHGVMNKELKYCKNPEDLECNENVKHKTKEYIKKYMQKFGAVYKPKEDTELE
Sequence of UniProt P33527 (whole entry, looked up): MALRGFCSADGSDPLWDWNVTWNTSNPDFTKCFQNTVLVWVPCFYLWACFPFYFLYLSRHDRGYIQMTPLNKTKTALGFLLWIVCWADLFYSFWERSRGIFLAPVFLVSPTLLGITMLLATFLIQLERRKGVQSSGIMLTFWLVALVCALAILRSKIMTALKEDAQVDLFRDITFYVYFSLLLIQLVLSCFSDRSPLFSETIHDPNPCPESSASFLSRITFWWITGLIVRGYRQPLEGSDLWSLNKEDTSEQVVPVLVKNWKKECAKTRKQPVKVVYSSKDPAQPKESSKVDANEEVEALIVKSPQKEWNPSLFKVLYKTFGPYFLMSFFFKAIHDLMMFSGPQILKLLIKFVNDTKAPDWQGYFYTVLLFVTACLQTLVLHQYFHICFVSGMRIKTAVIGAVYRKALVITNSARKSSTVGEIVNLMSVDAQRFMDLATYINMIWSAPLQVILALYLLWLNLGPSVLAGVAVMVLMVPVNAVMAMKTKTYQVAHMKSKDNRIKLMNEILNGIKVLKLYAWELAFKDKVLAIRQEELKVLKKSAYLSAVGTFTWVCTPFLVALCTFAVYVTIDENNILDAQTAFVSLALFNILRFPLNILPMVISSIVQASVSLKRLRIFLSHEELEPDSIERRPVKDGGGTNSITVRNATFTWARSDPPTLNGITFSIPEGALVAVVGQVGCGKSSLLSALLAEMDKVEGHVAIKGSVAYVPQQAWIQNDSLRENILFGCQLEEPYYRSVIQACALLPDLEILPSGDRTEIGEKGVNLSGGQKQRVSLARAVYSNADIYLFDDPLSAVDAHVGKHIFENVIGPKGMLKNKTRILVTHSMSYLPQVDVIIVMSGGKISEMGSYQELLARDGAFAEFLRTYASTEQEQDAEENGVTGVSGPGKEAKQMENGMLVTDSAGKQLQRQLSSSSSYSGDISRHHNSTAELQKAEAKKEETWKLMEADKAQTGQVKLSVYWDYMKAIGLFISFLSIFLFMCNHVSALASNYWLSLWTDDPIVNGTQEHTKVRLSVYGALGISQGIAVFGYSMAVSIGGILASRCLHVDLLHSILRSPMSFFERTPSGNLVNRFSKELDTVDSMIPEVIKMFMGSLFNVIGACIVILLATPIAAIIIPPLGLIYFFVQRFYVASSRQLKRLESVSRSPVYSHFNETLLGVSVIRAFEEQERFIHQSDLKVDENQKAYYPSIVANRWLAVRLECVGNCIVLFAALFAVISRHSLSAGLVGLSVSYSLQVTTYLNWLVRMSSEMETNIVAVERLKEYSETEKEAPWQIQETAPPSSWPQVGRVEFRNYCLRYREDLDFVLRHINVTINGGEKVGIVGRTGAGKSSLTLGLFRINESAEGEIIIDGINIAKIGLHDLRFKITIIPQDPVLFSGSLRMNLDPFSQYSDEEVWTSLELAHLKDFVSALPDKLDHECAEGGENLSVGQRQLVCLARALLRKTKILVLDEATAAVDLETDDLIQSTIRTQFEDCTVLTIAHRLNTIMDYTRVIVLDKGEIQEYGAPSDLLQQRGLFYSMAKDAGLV
Sequence of UniProt P39135 (whole entry, looked up): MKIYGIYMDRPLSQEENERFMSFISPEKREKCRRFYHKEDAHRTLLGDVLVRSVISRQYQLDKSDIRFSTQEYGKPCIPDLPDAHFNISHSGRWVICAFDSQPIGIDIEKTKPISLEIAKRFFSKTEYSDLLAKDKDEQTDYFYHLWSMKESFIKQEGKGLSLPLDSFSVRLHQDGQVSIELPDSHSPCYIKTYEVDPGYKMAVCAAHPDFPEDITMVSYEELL
Sequence of UniProt Q60397 (whole entry, looked up): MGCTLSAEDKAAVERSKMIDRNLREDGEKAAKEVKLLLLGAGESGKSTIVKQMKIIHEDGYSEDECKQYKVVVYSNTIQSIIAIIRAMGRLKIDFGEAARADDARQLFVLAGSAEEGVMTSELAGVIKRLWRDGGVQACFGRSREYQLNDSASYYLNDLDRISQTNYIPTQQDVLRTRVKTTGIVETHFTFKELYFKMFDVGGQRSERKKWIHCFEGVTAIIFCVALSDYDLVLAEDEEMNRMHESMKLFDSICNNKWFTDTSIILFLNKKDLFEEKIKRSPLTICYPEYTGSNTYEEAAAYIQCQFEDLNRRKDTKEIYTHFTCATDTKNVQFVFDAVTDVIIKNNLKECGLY
Sequence of UniProt P14174 (whole entry, looked up): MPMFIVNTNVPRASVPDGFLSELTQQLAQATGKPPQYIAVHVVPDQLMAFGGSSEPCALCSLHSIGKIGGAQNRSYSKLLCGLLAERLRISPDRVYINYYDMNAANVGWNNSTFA

CC(C)(C)c1ccc(/C=C/C(=O)Nc2ccc3c(c2)OCCO3)cc1  IC50 (ERRα (human); reporter gene, antagonist, luciferase reporter qHTS): 2660 nM
CC(C)(COP(=O)(O)OP(=O)(O)OC[C@H]1O[C@@H](n2cnc3c(N)ncnc32)[C@H](O)[C@@H]1OP(=O)(O)O)[C@@H](O)C(=O)NCCC(=O)NCCS  IC50 (sfp (Bacillus subtilis, UniProt P39135); phosphopantetheinylation, inhibitor, fluorescence polarization; 45 min, pH 7.6, 10% DMSO, added: VibB 10 µM and rhodamine-CoA 5 µM): 8000 ± 1000 nM
C=C(C)CN=C=S  IC50 (Macrophage migration inhibitory factor (MIF, Homo sapiens, UniProt P14174); enzyme activity, inhibitor; with preincubation): 1430 nM
CC(=O)OO  IC50 (Helix pomatia β-glucuronidase; enzyme activity; 1 h, pH 7.0, 37 °C, added: p-nitrophenyl glucuronide): 23300 ± 820 nM
O=C(Oc1ccc([N+](=O)[O-])cc1)N1CCC(C(O)(c2ccc3c(c2)OCO3)c2ccc3c(c2)OCO3)CC1  IC50 (Monoacylglycerol lipase ABHD6 (Abhd6, Rattus norvegicus, UniProt Q5XI64); competitive ABPP; rat brain membrane proteome): 2940 nM
CCN1C[C@H](C)n2c(c(O)c3c(=O)n(Cc4ccc(F)c(Cl)c4)nc(C(=O)NC)c32)C1=O  IC50 (Gag-Pol polyprotein, integrase (gag-pol, Human immunodeficiency virus 1, UniProt P12497); concerted integration, inhibitor, measured: donor-donor products; 2 h, 37 °C): 21 ± 3 nM
O=C1Nc2ccc(S(=O)(=O)O)cc2C1=C1Nc2ccccc2C1=NO  IC50 (Putative glycogen synthase kinase (Leishmania major, UniProt Q4QE15); enzyme activity, inhibitor; 90 min, 30 °C, added: ATP 2 µM): 2840 nM
COc1ccc(NC(=O)Nc2nc(SCC(=O)C(C)(C)C)ns2)cc1  IC50 (ROP18 (Toxoplasma gondii, UniProt Q2PAY2); enzyme activity, inhibitor): > 10000 nM
O=C(O)c1cc[c]([Hg][Cl])cc1  IC50 (Lysosomal acid glucosylceramidase (GBA1, Homo sapiens, UniProt P04062, R534H); enzyme activity, inhibitor; pH 5.9, 1.9 nM enzyme, added: 30 µM resorufin β-glucoside): 620 nM
CCCCCCCCCC(=O)N[C@@H](CCCN=C(N)N)C(=O)N[C@H](C(=O)N[C@@H](CCCCN)C(=O)N[C@@H](CCCN=C(N)N)C(=O)CCl)C(C)C  IC50 (Furin (FURIN, Homo sapiens, UniProt P09958); enzyme activity, inhibitor, fluorescence): 2.18 nM
O=C([O-])c1ccccc1-c1c2cc(Br)c(=O)cc-2oc2[c]([Hg+])c([O-])c(Br)cc12.[Na+].[Na+].[OH-]  IC50 (Histone-lysine N-methyltransferase SETD2 (SETD2, Homo sapiens, UniProt Q9BYW2); enzyme activity, inhibitor): 2400 nM
Oc1ccc(-c2cc(Cl)cc(Cl)c2)cc1Cl  IC50 (Sulfotransferase 2A6 (Sult2a6, Rattus norvegicus, UniProt P22789); enzyme activity, inhibitor; 6 min, 37 °C, added: DHEA 10 µM): ~50000 nM
C[C@@H]1C[C@H]2[C@@H]3CCC4=CC(=O)C=C[C@]4(C)[C@@]3(Cl)[C@@H](O)C[C@]2(C)[C@@]1(OC(=O)c1ccco1)C(=O)CCl  IC50 (Multidrug resistance-associated protein 1 (ABCC1, Homo sapiens, UniProt P33527); efflux, inhibitor, flow cytometry; SupT1 cells overexpressing ABCC1; added: tetramethylrosamine 500 nM): 3600 ± 2300 nM
C[N+](C)(C)CCSS(C)(=O)=O  IC50 (Guanine nucleotide-binding protein G(i) subunit alpha-3 (GNAI3, Cricetulus griseus, UniProt Q60397); CHO (Y2 receptor) membranes; added: NEM): 13100 ± 1290 nM
O=C(O[C@@H]1Cc2c(O)cc(O)cc2O[C@@H]1c1ccc(O)c(O)c1)c1cc(O)c(O)c(O)c1  IC50 (mRNA triphosphatase Cet1 (Trypanosoma brucei brucei, UniProt Q582T2); enzyme activity, Transcreener ADP fluorescence polarization; 3 h, added: 50 µM ATP): 640 nM
CSC[C@H]1O[C@@H](n2cnc3c(N)ncnc32)[C@H](O)[C@@H]1O  IC50 (Protein arginine methyltransferase 1 (Plasmodium falciparum, UniProt Q8ILK1); methyltransferase activity, inhibitor; 30 min, 30 °C, added: histone H4 substrate): > 360000 nM

Some of these lines once more:
CC(C)(C)c1ccc(/C=C/C(=O)Nc2ccc3c(c2)OCCO3)cc1  IC50 (ERRα (human); reporter gene, antagonist, luciferase reporter qHTS): 2660 nM
CC(C)(COP(=O)(O)OP(=O)(O)OC[C@H]1O[C@@H](n2cnc3c(N)ncnc32)[C@H](O)[C@@H]1OP(=O)(O)O)[C@@H](O)C(=O)NCCC(=O)NCCS  IC50 (sfp (Bacillus subtilis, UniProt P39135); phosphopantetheinylation, inhibitor, fluorescence polarization; 45 min, pH 7.6, 10% DMSO, added: VibB 10 µM and rhodamine-CoA 5 µM): 8000 ± 1000 nM
